Published values from different studies.
Numbered parts are unrelated; each lists some results of a single study. Changes are numbered by the printed parent chain.

Set 1
Target: Ras GTPase-activating protein-binding protein 1, full length (G3BP1, Homo sapiens, UniProt Q13283)
UniProt Q13283, sequence (whole entry, looked up): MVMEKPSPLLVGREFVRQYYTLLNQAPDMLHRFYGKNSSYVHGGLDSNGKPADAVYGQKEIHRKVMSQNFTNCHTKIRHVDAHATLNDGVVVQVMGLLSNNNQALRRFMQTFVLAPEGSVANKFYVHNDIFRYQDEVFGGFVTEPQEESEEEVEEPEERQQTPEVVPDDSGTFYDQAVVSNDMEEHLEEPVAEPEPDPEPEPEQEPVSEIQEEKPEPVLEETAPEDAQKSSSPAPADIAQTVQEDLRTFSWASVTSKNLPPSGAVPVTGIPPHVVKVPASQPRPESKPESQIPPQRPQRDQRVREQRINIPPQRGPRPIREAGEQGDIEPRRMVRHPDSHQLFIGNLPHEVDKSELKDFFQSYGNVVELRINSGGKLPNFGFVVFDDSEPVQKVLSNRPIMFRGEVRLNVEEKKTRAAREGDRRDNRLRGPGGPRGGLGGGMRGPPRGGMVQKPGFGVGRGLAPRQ
Method: RNA Bind-n-Seq
Form: RNA
Medium: in vitro
Tested at: 200 nM
Notes: whole 134-nt RNA, ends assumed
Together with: 150 mM LiCl
Relative to: input library
Direction: higher = stronger binding
Measurement: log2 enrichment
Library: 7-deaza-guanosine replaces G
GGGAGUUCUACAGUCCGACGAUCCACAGACAACACGCAAACACACAGACACAGAGGGAAGGGGUUGGGAUGGGGACAGGGUGCACAGCAGGGCGGGGUAGGACCCCAGCCCCUUGGAAUUCUCGGGUGUCAAGG: 0.357
GGGAGUUCUACAGUCCGACGAUCAAGUCCUGUGCUACACAUCGUAUGUACCGAAUCGGGCCCCGGGCCCCGGCCCCGGGAAAGUAUUAUGUUACGCCGUUCGGAUCUGCACUUUGGAAUUCUCGGGUGUCAAGG: -1.13
GGGAGUUCUACAGUCCGACGAUCUGGGAGGUGGAUUUUGUUUAUUUUUUUAGCUCAUUUCCAGGGAUGGGAAUUUUUUUUUAAUAUGUGUCAUGAAUAAAGUUGUUUUUGAAAUGGAAUUCUCGGGUGUCAAGG: -0.348
GGGAGUUCUACAGUCCGACGAUCGCAGGAAGUAAAAACAACUGGAAAUGCUUCGGAUAGUGGCAGGGGUGGGGGUUGCUAAGGAAAGGGUGGGAUGGGAGUGGGUAAAGAGUUUGGAAUUCUCGGGUGUCAAGG: -0.188

Set 2
Target: RING finger protein unkempt homolog, zinc fingers 1-6, GST-SBP tag (UNK, Homo sapiens, UniProt Q9C0B0, residues 30-357)
Method: RNA Bind-n-Seq
Form: RNA
Medium: in vitro
Tested at: not given
Notes: RNA with constant flanks, human and mouse sites, ends assumed
Relative to: input RNA pool
Direction: higher = stronger binding
Measurement: bound/input enrichment
Target sequence (chain): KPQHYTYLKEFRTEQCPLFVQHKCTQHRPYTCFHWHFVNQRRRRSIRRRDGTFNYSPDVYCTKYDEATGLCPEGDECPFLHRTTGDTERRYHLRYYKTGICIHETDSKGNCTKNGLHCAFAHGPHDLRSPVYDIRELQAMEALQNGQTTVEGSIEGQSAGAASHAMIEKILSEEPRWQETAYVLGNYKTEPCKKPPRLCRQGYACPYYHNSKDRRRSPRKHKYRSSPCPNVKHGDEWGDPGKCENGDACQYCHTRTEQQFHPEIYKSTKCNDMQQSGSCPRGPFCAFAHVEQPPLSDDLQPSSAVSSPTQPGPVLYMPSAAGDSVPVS
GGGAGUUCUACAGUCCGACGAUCCAGCGUCUCUGGGUGGGCCGCUGGCUGGCAGGCCAGGCCGGGGGCCUGCUGAGGGACCGUGGGCUGAGGAAGGAUGCCCGUGCCAGUGCCCGGGAUGCGGCUGUUGUCUACCAUAAGCUGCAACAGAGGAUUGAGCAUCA: 0.0351 ratio
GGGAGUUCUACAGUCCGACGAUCGGUAAGCUAAUCGCGGUGAUUGGAGACGAGGACACGGUGACUGGUUUCCUGUUGGGCGGCAUAGGGGAGCUAAACAAGAACCGCCACCCUAAUUUCCUGGUAGUGGAGAAGGAUACCACCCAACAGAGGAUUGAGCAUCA: 0.243 ratio
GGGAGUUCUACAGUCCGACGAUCCACAGUGAACGAGACAUGAGAAAUACACUGGAAAAGUUCGCUGCAAGCAUCCAGGGCUUAUCAGAGCAAGAAGAGUAUCUGUGUGUACAAAUUAAAGAACUGGAAGCUAACGUUCUUACUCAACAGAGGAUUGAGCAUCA: 0.127 ratio
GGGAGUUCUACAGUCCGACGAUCGAUCACUUCAUUUCUAAGUGUUUUAAGUGGGGAGCAAAGUACAUGUUAAAAGCAUGUUGCAUUAGAUAUAAAUUCAGUUUUUUAAACUCUUACCAAUGUAAGAACUGCAGAAAUAUUUUUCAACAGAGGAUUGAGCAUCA: 3.28 ratio
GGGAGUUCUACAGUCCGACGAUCGAAAUGGCCACCACAGAAGAUGCUCAGGCUGCUGUGGAUUAUUAUACAACUACACCAGCAUUAGUGUUUGGCAAGCCAGUGAGAGUUCAUUUAUCCCAGAAGUAUAAGAGAAUAAAGAAACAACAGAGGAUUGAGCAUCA: 0.59 ratio
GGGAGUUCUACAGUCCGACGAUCAAAGCACACAGACUUCUCAGCCCAUGUACUGUGCCUGCCAAGCCAUUGGAACCUGAAACCGUAGCUAGCGAGAACUUGCGCAGCCACAUACCAAAGCCGAAGGCUACUCUGUGCCAUUCCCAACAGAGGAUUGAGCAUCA: 0.129 ratio

Set 3
Target: CCND3, cyclin fold, Cln2 fusion (human)
Method: yeast growth competition, sequencing
Medium: yeast
Notes: weak parent motif
Relative to: not given
Direction: higher = stronger binding
Measurement: normalised enrichment score
Starting sequence: RBL1 docking peptide (human); GSAKRRLFGEDPP; partner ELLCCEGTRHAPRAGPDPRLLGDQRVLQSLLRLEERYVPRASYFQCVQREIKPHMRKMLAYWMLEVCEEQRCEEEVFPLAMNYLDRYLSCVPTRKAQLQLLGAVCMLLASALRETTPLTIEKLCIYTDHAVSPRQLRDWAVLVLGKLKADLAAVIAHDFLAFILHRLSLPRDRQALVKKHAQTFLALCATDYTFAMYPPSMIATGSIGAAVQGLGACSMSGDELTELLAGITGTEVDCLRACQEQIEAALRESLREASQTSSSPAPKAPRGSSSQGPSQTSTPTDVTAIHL
GSAKRMLFGEDPP [R6M]: 0.141
GSAKRRLFGEDCP [P12C]: 0.0788
GSAKRRLRGEDPP [F8R]: 0.0985
GSAKWRLFGEDPP [R5W]: 0.0501
GSAKRRLFGEMPP [D11M]: 0.0878
GPAKRRLFGEDPP [S2P]: 0.158
GSAKRRVFGEDPP [L7V]: 0.184

Mixed results
PhoQ, residues 284 288 289 292 302 303 TGYLSA
fold induction (PhoP, residues 12 14 15 18 19 LHSVQ (Escherichia coli, UniProt P23836); Sort-seq, item: YFP reporter; E. coli; PhoQ-PhoP variant library, together with: 10 µM Mg2+; relative to: high Mg2+ state, higher = stronger signaling): 17.5
